Published values from different studies.
A part holds a random share of what one study measured. “And” joins repeats or separate records; there may be more than shown.
Chain of UniProt P62344 (whole entry, looked up): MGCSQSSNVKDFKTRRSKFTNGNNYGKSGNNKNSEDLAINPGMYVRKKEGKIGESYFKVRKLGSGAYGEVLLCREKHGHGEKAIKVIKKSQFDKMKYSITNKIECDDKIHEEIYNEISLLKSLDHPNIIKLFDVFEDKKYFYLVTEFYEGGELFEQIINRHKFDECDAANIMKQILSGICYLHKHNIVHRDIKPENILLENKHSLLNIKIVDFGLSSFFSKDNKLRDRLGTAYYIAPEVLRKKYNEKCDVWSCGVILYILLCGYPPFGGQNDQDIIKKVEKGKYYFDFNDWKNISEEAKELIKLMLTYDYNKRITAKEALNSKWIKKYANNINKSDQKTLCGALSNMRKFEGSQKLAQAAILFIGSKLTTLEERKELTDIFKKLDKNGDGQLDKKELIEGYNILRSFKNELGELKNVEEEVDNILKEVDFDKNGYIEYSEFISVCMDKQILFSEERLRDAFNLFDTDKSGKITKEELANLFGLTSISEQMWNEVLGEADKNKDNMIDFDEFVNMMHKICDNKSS
Chain of UniProt P9WI81 (whole entry, looked up): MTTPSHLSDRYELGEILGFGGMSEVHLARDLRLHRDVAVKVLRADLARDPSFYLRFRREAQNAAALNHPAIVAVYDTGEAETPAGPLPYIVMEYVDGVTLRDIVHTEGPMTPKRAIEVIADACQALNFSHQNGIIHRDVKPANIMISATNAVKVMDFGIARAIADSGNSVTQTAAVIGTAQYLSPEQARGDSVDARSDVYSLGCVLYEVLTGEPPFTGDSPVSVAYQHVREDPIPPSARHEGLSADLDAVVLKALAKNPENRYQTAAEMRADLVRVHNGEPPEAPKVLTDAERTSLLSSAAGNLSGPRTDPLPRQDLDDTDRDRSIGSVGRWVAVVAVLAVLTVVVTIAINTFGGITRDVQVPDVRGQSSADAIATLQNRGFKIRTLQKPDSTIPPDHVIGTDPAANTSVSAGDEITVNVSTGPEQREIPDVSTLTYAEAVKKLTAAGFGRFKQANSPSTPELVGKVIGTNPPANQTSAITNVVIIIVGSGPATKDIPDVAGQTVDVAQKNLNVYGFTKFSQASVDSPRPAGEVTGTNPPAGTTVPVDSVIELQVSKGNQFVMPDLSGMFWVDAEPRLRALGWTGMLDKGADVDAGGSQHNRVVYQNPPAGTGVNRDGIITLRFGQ
Chain of UniProt P18825 (whole entry, looked up): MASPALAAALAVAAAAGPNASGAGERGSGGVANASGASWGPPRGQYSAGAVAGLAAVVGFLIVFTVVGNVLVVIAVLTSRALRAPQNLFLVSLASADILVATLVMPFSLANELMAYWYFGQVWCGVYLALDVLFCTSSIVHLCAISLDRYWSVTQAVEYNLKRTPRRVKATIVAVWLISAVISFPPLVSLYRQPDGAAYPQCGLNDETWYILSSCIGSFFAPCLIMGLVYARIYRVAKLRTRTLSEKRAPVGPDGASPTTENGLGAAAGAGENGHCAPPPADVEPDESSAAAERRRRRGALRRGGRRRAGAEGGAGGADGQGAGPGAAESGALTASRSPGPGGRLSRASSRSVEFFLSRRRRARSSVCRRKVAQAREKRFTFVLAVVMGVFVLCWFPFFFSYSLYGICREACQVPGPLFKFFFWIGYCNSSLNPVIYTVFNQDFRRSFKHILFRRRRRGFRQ

Sample 1
Cell line: mouse MPNST tumor cells
Technique: high-content nuclear imaging
Item: cell number
Concentration: 10 µM
Time: 12 h
Notes: mean of 2 replicates
Reference: plate mean
Direction: higher = more cells
| Compound | nuclei count |
| --- | --- |
| CC(C)(C)c1cc(C(C)(C)C)c2c(c1)C(O)(C(F)(F)F)C(=O)O2 (racemic) | 1.7 z-score |
| CCCCCn1cc(C(=O)NC23CC4CC(CC(C4)C2)C3)c(=O)c2cc(-c3ccccc3)ccc21 | 2.11 z-score |
| C[N+]1(C)CCCC(OC(=O)C(O)(c2ccccc2)c2ccccc2)C1 (stereo not drawn) | 0.65 z-score |
| COc1cc2c(c(OC)c1OC)-c1ccc(OC)c(=O)cc1[C@@H](NC(C)=O)CC2 | -4.15 z-score |
| CCOc1ccccc1-n1c(C(C)N2CCN(C(=O)COc3ccc(Cl)cc3)CC2)nc2ccccc2c1=O (stereo not drawn) | -6.31 z-score |
| CN1C[C@H](CNC(=O)OCc2ccccc2)C[C@@H]2c3cccc4c3c(cn4C)C[C@H]21 | 0.712 z-score and -3.82 z-score |

Sample 2
Cell line: HEK-293T
Read-out: pseudovirus infection
Technique: FDA-approved drug library counter-screen
Organism: VSV pseudotyped with VSV-G
Concentration: 10 µM
Time: 16 h
Reference: vehicle-treated
| SMILES | GFP-positive cells [%] |
| --- | --- |
| O=C(O)c1ccc(-n2nc(-c3ccccc3O)nc2-c2ccccc2O)cc1 | 45.3 |
| CCC(=O)OCC(=O)[C@@]1(OC(=O)CC)[C@@H](C)C[C@H]2[C@@H]3CCC4=CC(=O)C=C[C@]4(C)[C@@]3(F)[C@@H](O)C[C@@]21C | 102 |
| Cc1cccc(Nc2ccncc2S(=O)(=O)NC(=O)NC(C)C)c1 | 101 |
| CCCCCOC(=O)Nc1nc(=O)n([C@@H]2O[C@H](C)[C@@H](O)[C@H]2O)cc1F | 108 |
| CC1=CC(=O)c2ccccc2C1=O | 122 |
| COC(=O)[C@@H]1CC2=CC(=O)CC[C@]2(C)[C@@]23O[C@@H]2C[C@@]2(C)[C@@H](CC[C@@]24CCC(=O)O4)[C@H]13 | 100 |
| CC(CN1c2ccccc2Sc2ccccc21)N(C)C (stereo not drawn) | 127 |
| COC(=O)[C@H]1[C@H]2C[C@@H]3c4[nH]c5cc(OC)ccc5c4CCN3C[C@H]2C[C@@H](OC(=O)c2cc(OC)c(OC)c(OC)c2)[C@@H]1OC | 110 |
| CNC(=O)c1ccccc1Sc1ccc2c(/C=C/c3ccccn3)n[nH]c2c1 | 65.4 |
| CCOC(=O)[C@H](CCc1ccccc1)N[C@@H](C)C(=O)N1Cc2ccccc2C[C@H]1C(=O)O | 110 |
| CC(=O)NCCCS(=O)(=O)O | 126 |
| COc1ccc(C(CN(C)C)C2(O)CCCCC2)cc1 (stereo not drawn) | 63.5 |
| Cc1ccnc(NS(=O)(=O)c2ccc(N)cc2)n1 | 121 |
| NC(=O)c1cnccn1 | 104 |
| CC(=O)OCC(CCn1cnc2cnc(N)nc21)COC(C)=O | 111 |
| CC(C)(C)C(=O)OCOP(=O)(COCCn1cnc2c(N)ncnc21)OCOC(=O)C(C)(C)C | 106 |
| C[C@]12CC[C@H]3[C@@H](CCC4=CC(=O)CC[C@@]43C)[C@@H]1CC[C@@H]2O | 99.4 |
| CCCOc1ccc(C(=O)OCCN(CC)CC)cc1N | 100 |
| CC1(C)O[C@@H]2C[C@H]3[C@@H]4CCC5=CC(=O)C=C[C@]5(C)[C@@]4(F)[C@@H](O)C[C@]3(C)[C@]2(C(=O)CO)O1 | 103 |
| CC(=O)c1ccc2c(c1)N(CCCN1CCC(CCO)CC1)c1ccccc1S2 | 130 |
| C#C[C@]1(O)CC[C@H]2[C@@H]3CCC4=CC(=O)CC[C@@H]4[C@H]3CC[C@@]21CC | 101 |
| NC(=O)N1c2ccccc2C=Cc2ccccc21 | 87 |
| CC[C@H]1OC(=O)[C@H](C)[C@@H](O[C@H]2C[C@@](C)(OC)[C@@H](O)[C@H](C)O2)[C@H](C)[C@@H](O[C@@H]2O[C@H](C)C[C@H](N(C)C)[C@H]2O)[C@](C)(OC)C[C@@H](C)C(=O)[C@H](C)[C@@H](O)[C@]1(C)O | 106 |
| C[C@]12C=CC(=O)C=C1CC[C@H]1[C@@H]3C[C@@H](O)[C@](O)(C(=O)CO)[C@@]3(C)C[C@H](O)[C@@]12F | 95.5 |
| CCOC(=O)CC(SP(=S)(OC)OC)C(=O)OCC (stereo not drawn) | 115 |

Sample 3
Target: chymotrypsin
Read-out: enzyme activity
Action: inhibitor
Concentration: 10 µM
Notes: with DTT
| Compound | inhibition |
| --- | --- |
| Cc1ccc(S(=O)(=O)N[C@@H](Cc2ccccc2)C(=O)CCl)cc1 | 39.6% |
| COc1cc(N(C)C)cc(CN(C)CCc2ccc([N+](=O)[O-])cc2)c1O | 10.8% |
| O=C1/C(=C/c2ccc([N+](=O)[O-])cc2)CS(=O)(=O)C/C1=C\c1ccc([N+](=O)[O-])cc1 | 8.4% |
| c1ccc2sc(SSc3nc4ccccc4s3)nc2c1 | 5% |
| CC(C)(C)OC(=O)NCCc1nnc(S(=O)(=O)Cc2ccc(Cl)cc2Cl)o1 | 103% |
| O=[N+]([O-])c1ccc(Sc2cccc[n+]2[O-])c2nonc12 | 4.9% |
| S=C=Nc1cccc(NC(=S)NCCCCNC(=S)Nc2cccc(N=C=S)c2)c1 | 6% |
| C=CC1=C(C)c2cc3[nH]c(cc4nc(cc5[nH]c(cc1n2)c(C)c5C=C)C(C)=C4CCC(=O)O)c(CCC(=O)O)c3C.[Fe+3] | 6.3% |
| CCN1CCN(C(c2ccc(C(F)(F)F)cc2)c2ccc3cccnc3c2O)CC1 (stereo not drawn) | 3.7% |
| COc1ccc2[nH]c([S+]([O-])Cc3ncc(C)c(OC)c3C)nc2c1 (stereo not drawn) | 8.1% |
| Nc1nc(=S)c2ncn([C@@H]3O[C@H](CO)[C@@H](O)[C@H]3O)c2[nH]1 | 7.6% |
| O=C1C(Cl)=C(N2CCOCC2)C(=O)N1c1ccc(Cl)c(Cl)c1 | 7.2% |
| CC1=C(/C=C/C(C)=C/C=C/C(C)=C/C(=O)O)C(C)(C)CCC1 | 0.8% |
| Sc1nnc(Nc2ccccc2)s1 | 4.7% |
| NC(Cc1cc(O)c(O)cc1O)C(=O)O (racemic) | 3% |
| COc1ccc([N+](=O)[O-])c(S(=O)(=O)c2ccc(Cl)cc2)n1 | 11.4% |
| CNc1nc(Nc2cn(C(C)(C)C#N)nc2C)ncc1C(F)(F)F | 4.6% |
| COc1nc2ccc(Br)cc2cc1[C@@H](c1ccccc1)[C@@](O)(CCN(C)C)c1cccc2ccccc12 | 7.8% |
| Oc1ccc(C2CNCCc3c2cc(O)c(O)c3Cl)cc1 (stereo not drawn) | 4.1% |
| c1cnc(SCc2cccnc2)nc1 | 1.2% |
| CCCC[C@H](NC(=O)[C@@H]1[C@@H]2[C@H](CN1C(=O)[C@@H](NC(=O)NC1(CS(=O)(=O)C(C)(C)C)CCCCC1)C(C)(C)C)C2(C)C)C(=O)C(=O)NC1CC1 | 102% |
| O=c1c2ccccc2sn1-c1ccccc1 | 8.9% |
| Cc1ccc(-n2sc(=O)n(Cc3ccc(F)cc3)c2=O)cc1 | 24.5% |

Further values, each from its own experiment
| SMILES | target | read-out | technique | concentration | measurement | result |
| --- | --- | --- | --- | --- | --- | --- |
| CN([C@@H]1CCc2c(CC(=O)O)c3cc(S(C)(=O)=O)ccc3n2C1)S(=O)(=O)c1ccc(F)cc1 | CDPK1 (Plasmodium falciparum, UniProt P62344) | cell-free assay | competition with immobilised ligand | 1 µM | remaining binding | 75% |
| CNCc1ccccc1-c1csc([C@H](C)Nc2nc(C)nc3cc(OC)c(OC)cc23)c1 | pknB (Mycobacterium tuberculosis, UniProt P9WI81) | cell-free assay | competition with immobilised ligand | 1 µM | remaining binding | 90% |
| CNC(=O)c1cc(C(=O)NC2CC2)cn(Cc2ccccc2)c1=O | ADRA2C (Homo sapiens, UniProt P18825) | binding | radioligand binding | 10 µM | inhibition | 0.69% |
